Assay results gathered from unrelated publications.
Several values in a cell are separate wells, animals, samples, runs or records. ± gives the spread as reported.

SMILES | test | system | setting | scale | measurement | value
CC(C)C[C@@H]1NC(=O)CNC(=O)[C@H](CC(N)=O)NC(=O)[C@H](CCCNC(=N)N)NC(=O)[C@H](CCCCN)NC(=O)[C@@H]2CSSC[C@@H]3NC(=O)[C@H]([C@@H](C)O)NC(=O)CNC(=O)CNC(=O)[C@H](C(C)C)NC(=O)[C@@H]4CSSC[C@H](NC(=O)[C@H]([C@@H](C)O)NC(=O)[C@H](CSSC[C@H](NC(=O)[C@H](C(C)C)NC(=O)[C@@H]5CCCN5C1=O)C(=O)NCC(=O)N[C@@H](CCC(=O)O)C(=O)N[C@@H]([C@@H](C)O)C(=O)N4)NC(=O)CNC(=O)[C@@H]1CCCN1C(=O)[C@H]([C@@H](C)O)NC(=O)[C@H](CC(N)=O)NC3=O)C(=O)N[C@@H](CO)C(=O)N[C@@H](Cc1c[nH]c3ccccc13)C(=O)N1CCC[C@H]1C(=O)N[C@@H](C(C)C)C(=O)N2 | HPLC | ammonium bicarbonate | 180 µM, 7 days, pH 9.0, 25 °C, deamidation stability |  | remaining peptide | 86.1 ± 0.6%
COc1ccc(C[C@@H]2NC(=O)[C@H]([C@@H](C)O)NC(=O)[C@@H]3[C@@H]4CCN3C(=O)[C@@H]3Cc5cn(c6ccc(F)cc56)CCCCCCN(Cc5ccc(cc5)CCNC(=O)[C@]5(C)CCCN5C2=O)C(=O)CCC(=O)N[C@@H](C)C(=O)N[C@H](CNC(=O)CCCCC[N+](C)(C)C)C(=O)N[C@@H](Cc2cccc(c2)CNC(=O)CO4)C(=O)N3)cc1 | item: Dyspepsia | humans | concentration not given, Study-001 |  | participants with adverse event | 3.9%
Cn1cncc1-c1c(F)cncc1NC(=O)c1c(N)nn2cc(F)cnc12 |  | human patients | oral, 220 mg once daily, 21 days |  | dose-limiting toxicity upper GI haemorrhage | 0%
CC(C)CC(=O)OC[C@H]1O[C@@](C#N)(c2ccc3c(N)ncnn23)[C@H](O)[C@@H]1O |  | Sprague-Dawley rat, female, faeces | 80 mg/kg, time not given | baseline: dose | recovery in faeces | 0.0506%
COc1cc(C2C3=C(COC3=O)N(CCO)c3cc4c(cc32)CCC4)cc(OC)c1OC (centres unmarked) |  | female Sprague-Dawley rats | intraperitoneal, 100 mg/kg, 48 h, single dose, mean |  | body weight | 210 g
COc1cccc2c1CCCC2CCCN1CCN(C2CCCCC2)CC1 (centres unmarked) |  | CD-1 mouse, male, lung | intraperitoneal, 0.3 mg/kg |  | elimination rate constant | 6.13e-05 s⁻¹
CC(C)c1nc(N(C)S(C)(=O)=O)nc(-c2ccc(F)cc2)c1/C=C/[C@@H](O)C[C@@H](O)CC(=O)O |  | healthy human subjects | oral, dose not given, study CL-0537 safety set |  | incidence of dry mouth | 7.1%
COc1cc2c(Oc3ccc4[nH]c(C)cc4c3F)ccnc2cc1OCC1(N)CC1 |  | paediatric recurrent refractory sarcoma | 12 mg |  | grade 3 Hyperuricemia | 0%
CC(C)C[C@H](NC(=O)[C@H](CCCCN)NC(=O)OCC1c2ccccc2-c2ccccc21)C(=O)N[C@H](C(=O)N[C@@H](Cc1ccccc1)C(=O)N[C@@H](Cc1ccccc1)C(=O)N[C@@H](CCCCN)C(=O)NCC(=O)N[C@@H](Cc1ccccc1)C(=O)N[C@@H](C)C(=O)N[C@@H](Cc1c[nH]c2ccccc12)C(=O)N[C@@H](CC(N)=O)C(=O)N[C@H](C(=O)N[C@H]1CSSC[C@@H](C(=O)N[C@@H](Cc2c[nH]cn2)C(=O)N[C@@H](CCCNC(=N)N)C(=O)N[C@@H](CCCNC(=N)N)C(=O)N[C@@H](C)C(=O)N[C@@H](CC(N)=O)C(N)=O)NC(=O)[C@H](C(C)C)NC(=O)[C@H](CCCNC(=N)N)NC(=O)[C@H](C(C)C)NC(=O)CNC(=O)[C@H](CC(N)=O)NC(=O)[C@H](CCCNC(=N)N)NC(=O)[C@H](Cc2ccc(O)cc2)NC(=O)[C@H](C(C)C)NC1=O)C(C)C)C(C)C |  | ICR mouse, blood | intramammary, 5 mg/kg, day 5, 3 d dosing |  | lymphocytes | 74.7 ± 1.18%
CC(=O)c1c(C)c2cnc(Nc3ccc(C4CCN(CCS(C)(=O)=O)CC4)cn3)nc2n(C2CCCC2)c1=O |  | human, plasma | oral, 25 mg once daily, day 1, single dose |  | elimination rate constant | 3.33e-05 s⁻¹
CCNCCCNC/C=C\CNCCCNCC |  | human, advanced solid tumours | intravenous, dose not given | baseline: patients | ECG changed to abnormal | 2.8%
CCN(CCO)CCCC(C)Nc1ccnc2cc(Cl)ccc12 (centres unmarked) |  | newly diagnosed glioblastoma patients | oral, 200 mg/dose, grade 4, added: radiotherapy and temozolomide |  | white cell decrease patients | 33%
c1ccc2c(c1)-c1ccc3ccc4cccc5cc-2c1c3c45 |  | polyethylene-water partitioning | PAH compilation |  | literature range of log K | 5.8 to 7.62 log units
C=CCNc1c(O)cc2c(O)c1C[C@@H](C)C[C@H](OC)[C@H](O)[C@@H](C)/C=C(\C)[C@H](OC(N)=O)[C@@H](OC)/C=C\C=C(/C)C(=O)N2 |  | human unresectable metastatic GIST or sarcoma | concentration not given |  | QTc interval | no effect
CC(C)C[C@@H]1NC(=O)CNC(=O)[C@H](CC(N)=O)NC(=O)[C@H](CCCCN)NC(=O)[C@H]([C@@H](C)O)NC(=O)[C@@H]2CSSC[C@@H]3NC(=O)[C@H]([C@@H](C)O)NC(=O)CNC(=O)CNC(=O)[C@H](C(C)C)NC(=O)[C@@H]4CSSC[C@H](NC(=O)[C@H]([C@@H](C)O)NC(=O)[C@H](CSSC[C@H](NC(=O)[C@H](C(C)C)NC(=O)[C@@H]5CCCN5C1=O)C(=O)NCC(=O)N[C@@H](CCC(=O)O)C(=O)N[C@@H]([C@@H](C)O)C(=O)N4)NC(=O)CNC(=O)[C@@H]1CCCN1C(=O)[C@H]([C@@H](C)O)NC(=O)[C@H](CC(N)=O)NC3=O)C(=O)N[C@@H](CO)C(=O)N[C@@H](Cc1c[nH]c3ccccc13)C(=O)N1CCC[C@H]1C(=O)N[C@@H](C(C)C)C(=O)N2 | HPLC | ammonium bicarbonate | 180 µM, 7 days, pH 9.0, 25 °C, deamidation stability |  | remaining peptide | 96 ± 0.7%
C[C@]1(CO)Cc2ncn(-c3ccc(C#N)c(Cl)c3)c2C(=O)O1 |  | human, plasma | 20 mg, first dose fasted |  | AUC(0-inf) | 3.76 µM·h
N=C(N)NCCC[C@@H](NC(=O)[C@@H](N)Cc1ccccc1)C(=O)N[C@@H](Cc1ccccc1)C(=O)N[C@@H](CCCCN)C(N)=O | LC-MS | human | 5 mg, 11.83 h |  | median amount excreted in urine | 274000 ng
O=S(=O)(Nc1ccccc1)c1ccc(NC(=S)Nc2ccccc2)cc1 |  | mouse, male, spleen | oral, 80 mg/kg daily, 14 days | baseline: body weight | relative organ weight | 0.31%
O=C(Nc1ccccc1)C1CCN(C(=O)Oc2cccnc2)CC1 |  | healthy women | oral, 20 mg, 7 days |  | back pain adverse events | 7.1%

SMILES | test | system | setting | scale | measurement | value
CC/C(=C(\c1ccccc1)c1ccc(OCCN(C)C)cc1)c1ccccc1 |  | CD-1 mouse, male, plasma | intraperitoneal, 1 mg/kg |  | Tmax | 2 h
Clc1ccc(-c2cc(Cl)c(Cl)c(Cl)c2)cc1Cl |  | fresh water | 20 °C, S30-2 sampler, 30 µm |  | log K(PDMS-water) | 5.99 ± 0.04
Cc1ccccc1C(=O)NN=Cc1ccc(O)c(Br)c1 |  | C3H/HeN mouse IN model, plasma | intraperitoneal, 1.6 mg/kg |  | AUC(0-t) | 326 ng·h/mL
Clc1cc(Cl)c(-c2cccc(Cl)c2Cl)cc1Cl |  | polyethylene-water partitioning | PCB compilation | baseline: maximum over minimum K | literature range factor | 1
CN1CCN(S(=O)(=O)c2cc([N+](=O)[O-])ccc2N(CCOS(C)(=O)=O)CCOS(C)(=O)=O)CC1 |  | naive female NSG mice, plasma | intraperitoneal, 5 mg/kg |  | AUMC(0-inf) | 0.16 µM·h²
CN1CCN(c2ccc(Nc3nccc(-c4cccc(Cl)c4)n3)cc2C(F)(F)F)CC1 |  | zebrafish embryos | 50 µM, 5 d |  | toxicity | 0%
CCc1ccc(CC/C=C/c2ccc3c(c2)C(=O)CC3)cc1 |  | Sprague-Dawley rat, male | oral, 30 mg/kg/day, 14 days |  | Erythrocyte percentage | 13.3%
COc1ncccc1-c1cnn2ccc(N3CCN(C(=O)OC(C)C)CC3)nc12 |  | mouse nerve ligation model, plasma | oral, 10 mg/kg, 120 min after last dose, repeat dosing day 5 |  | drug concentration | 1800 nM
N.N.[Cl][Pt][Cl] |  | mouse xenograft model | dose not given, day 6 |  | body weight | 23 g and 21 g and 22 g and 20 g and 24 g
CO[C@H]1C[C@@H]2CC[C@@H](C)[C@@](O)(O2)C(=O)C(=O)N2CCCC[C@H]2C(=O)O[C@H]([C@H](C)C[C@@H]2CC[C@@H](OC(=O)NCCOCCOCCOCCOCCOCCOCCOCCOCCC(=O)N3CCc4cc(Cn5nc(-c6ccc7oc(N)nc7c6)c6c(N)ncnc65)ccc4C3)[C@H](OC)C2)C[C@@H](O)[C@H](C)/C=C(\C)[C@@H](O)[C@@H](OC)C(=O)[C@H](C)C[C@H](C)/C=C/C=C/C=C/1C | phase 1 dose escalation | advanced solid tumour patients | intravenous, 6 mg weekly, any grade |  | deaths due to TEAEs | 0%
CCCSc1ccc2nc(NC(=O)OC)[nH]c2c1 |  | mouse, blood | oral, 50 mg/kg, tolerability, mean |  | MCHC | 378 g/L
C[C@@H](NC(=O)N1C(=O)[C@H](Cc2ccnc(N)c2)[C@H]1C(=O)O)C1CCCCC1 |  | healthy Chinese adult volunteers | continuous intravenous infusion, dose not given, 5.0 days, CTCAE 5.0, all doses |  | decreased hemoglobin | 5%
CCN1[C@@H](C(=O)NC23CCC(C(=O)O)(CC2)CC3)[C@H](c2cccc(Cl)c2F)[C@]2(C(=O)Nc3cc(Cl)ccc32)C12CCCCC2 |  | patients with advanced solid tumours | oral, 150 mg |  | Anemia incidence | 62.5%
CN1CC[C@@H](c2c(O)cc(O)c3c(=O)cc(-c4ccc(C(F)(F)F)cc4Cl)oc23)[C@@H]1CO | item: Neutropenia | relapsed B-cell malignancies or AML | oral, 50 mg, grade 3-4, continuous dosing |  | patients with adverse event | 0%
COc1ccc(-c2c(-c3ccc(C#N)c(F)c3)nc(N3CCC(N)CC3)n(C)c2=O)cc1F | item: Hyperglycemia | human patients | oral, dose not given, dose escalation, NG |  | serious adverse event incidence | 2%
Clc1cc(Cl)cc(-c2cc(Cl)ccc2Cl)c1 |  | fresh water | 20 °C |  | log K(PDMS-water) | 5.7 ± 0.04
O=C([O-])CN1CCN(CC(=O)[O-])CCN(CC(=O)NCC2CCC(C(=O)N[C@@H](Cc3ccc4ccccc4c3)C(=O)NCCCC[C@H](NC(=O)N[C@@H](CCC(=O)O)C(=O)O)C(=O)O)CC2)CCN(CC(=O)[O-])CC1.[177Lu+3] (some centres unmarked) |  | BALB/c mouse, blood | intravenous |  | elimination half-life | 0.404 h
[O-][S+]1CCc2nc(N3CCC(c4ncc(Cl)cn4)CC3)nc(NC3(CO)CCC3)c21 (centres unmarked) | item: gastrointestinal disorders | healthy male humans | 48 mg single dose |  | adverse event incidence | 16.7%
CN(C(=O)n1cnc(-c2ccc[n+]([O-])c2)c1)C1CCCCC1 |  | Wistar rat, medulla oblongata | oral, 10 mg/kg/day, 48 h, repeated 5 days |  | concentration | 6.8 ± 3.4 ng/g

For quick reference, copied from above:
SMILES | test | system | setting | scale | measurement | value
CC(C)C[C@@H]1NC(=O)CNC(=O)[C@H](CC(N)=O)NC(=O)[C@H](CCCCN)NC(=O)[C@H]([C@@H](C)O)NC(=O)[C@@H]2CSSC[C@@H]3NC(=O)[C@H]([C@@H](C)O)NC(=O)CNC(=O)CNC(=O)[C@H](C(C)C)NC(=O)[C@@H]4CSSC[C@H](NC(=O)[C@H]([C@@H](C)O)NC(=O)[C@H](CSSC[C@H](NC(=O)[C@H](C(C)C)NC(=O)[C@@H]5CCCN5C1=O)C(=O)NCC(=O)N[C@@H](CCC(=O)O)C(=O)N[C@@H]([C@@H](C)O)C(=O)N4)NC(=O)CNC(=O)[C@@H]1CCCN1C(=O)[C@H]([C@@H](C)O)NC(=O)[C@H](CC(N)=O)NC3=O)C(=O)N[C@@H](CO)C(=O)N[C@@H](Cc1c[nH]c3ccccc13)C(=O)N1CCC[C@H]1C(=O)N[C@@H](C(C)C)C(=O)N2 | HPLC | ammonium bicarbonate | 180 µM, 7 days, pH 9.0, 25 °C, deamidation stability |  | remaining peptide | 96 ± 0.7%
C[C@]1(CO)Cc2ncn(-c3ccc(C#N)c(Cl)c3)c2C(=O)O1 |  | human, plasma | 20 mg, first dose fasted |  | AUC(0-inf) | 3.76 µM·h
N=C(N)NCCC[C@@H](NC(=O)[C@@H](N)Cc1ccccc1)C(=O)N[C@@H](Cc1ccccc1)C(=O)N[C@@H](CCCCN)C(N)=O | LC-MS | human | 5 mg, 11.83 h |  | median amount excreted in urine | 274000 ng
